Published values pooled from the literature.
Parts stem from different laboratories: compare values within a part only.
Chain of UniProt P23443 (whole entry, looked up): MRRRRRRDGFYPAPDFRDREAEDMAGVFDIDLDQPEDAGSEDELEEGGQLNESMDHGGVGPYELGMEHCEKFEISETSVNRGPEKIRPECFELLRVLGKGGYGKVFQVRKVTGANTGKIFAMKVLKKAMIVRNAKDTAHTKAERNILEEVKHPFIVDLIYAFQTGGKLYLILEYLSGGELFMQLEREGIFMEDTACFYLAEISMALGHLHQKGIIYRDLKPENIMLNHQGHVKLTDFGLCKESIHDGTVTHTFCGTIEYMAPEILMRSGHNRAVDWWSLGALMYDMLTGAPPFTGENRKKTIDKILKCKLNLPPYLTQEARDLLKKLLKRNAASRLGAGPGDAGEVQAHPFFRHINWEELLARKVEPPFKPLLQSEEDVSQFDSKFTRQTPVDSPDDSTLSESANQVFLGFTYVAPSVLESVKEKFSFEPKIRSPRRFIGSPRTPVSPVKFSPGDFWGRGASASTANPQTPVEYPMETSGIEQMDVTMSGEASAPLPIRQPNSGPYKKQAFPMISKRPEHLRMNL
Chain of UniProt Q16539 (whole entry, looked up): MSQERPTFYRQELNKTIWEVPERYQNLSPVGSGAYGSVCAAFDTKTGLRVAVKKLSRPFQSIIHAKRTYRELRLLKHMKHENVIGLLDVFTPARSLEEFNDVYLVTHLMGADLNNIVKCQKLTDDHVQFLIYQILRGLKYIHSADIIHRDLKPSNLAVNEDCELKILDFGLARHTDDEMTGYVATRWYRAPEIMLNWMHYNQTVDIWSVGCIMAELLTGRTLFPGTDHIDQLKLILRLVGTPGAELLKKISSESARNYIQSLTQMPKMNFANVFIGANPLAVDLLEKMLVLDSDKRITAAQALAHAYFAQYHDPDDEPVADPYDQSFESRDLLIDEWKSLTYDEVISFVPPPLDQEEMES
Chain of UniProt P80192 (whole entry, looked up): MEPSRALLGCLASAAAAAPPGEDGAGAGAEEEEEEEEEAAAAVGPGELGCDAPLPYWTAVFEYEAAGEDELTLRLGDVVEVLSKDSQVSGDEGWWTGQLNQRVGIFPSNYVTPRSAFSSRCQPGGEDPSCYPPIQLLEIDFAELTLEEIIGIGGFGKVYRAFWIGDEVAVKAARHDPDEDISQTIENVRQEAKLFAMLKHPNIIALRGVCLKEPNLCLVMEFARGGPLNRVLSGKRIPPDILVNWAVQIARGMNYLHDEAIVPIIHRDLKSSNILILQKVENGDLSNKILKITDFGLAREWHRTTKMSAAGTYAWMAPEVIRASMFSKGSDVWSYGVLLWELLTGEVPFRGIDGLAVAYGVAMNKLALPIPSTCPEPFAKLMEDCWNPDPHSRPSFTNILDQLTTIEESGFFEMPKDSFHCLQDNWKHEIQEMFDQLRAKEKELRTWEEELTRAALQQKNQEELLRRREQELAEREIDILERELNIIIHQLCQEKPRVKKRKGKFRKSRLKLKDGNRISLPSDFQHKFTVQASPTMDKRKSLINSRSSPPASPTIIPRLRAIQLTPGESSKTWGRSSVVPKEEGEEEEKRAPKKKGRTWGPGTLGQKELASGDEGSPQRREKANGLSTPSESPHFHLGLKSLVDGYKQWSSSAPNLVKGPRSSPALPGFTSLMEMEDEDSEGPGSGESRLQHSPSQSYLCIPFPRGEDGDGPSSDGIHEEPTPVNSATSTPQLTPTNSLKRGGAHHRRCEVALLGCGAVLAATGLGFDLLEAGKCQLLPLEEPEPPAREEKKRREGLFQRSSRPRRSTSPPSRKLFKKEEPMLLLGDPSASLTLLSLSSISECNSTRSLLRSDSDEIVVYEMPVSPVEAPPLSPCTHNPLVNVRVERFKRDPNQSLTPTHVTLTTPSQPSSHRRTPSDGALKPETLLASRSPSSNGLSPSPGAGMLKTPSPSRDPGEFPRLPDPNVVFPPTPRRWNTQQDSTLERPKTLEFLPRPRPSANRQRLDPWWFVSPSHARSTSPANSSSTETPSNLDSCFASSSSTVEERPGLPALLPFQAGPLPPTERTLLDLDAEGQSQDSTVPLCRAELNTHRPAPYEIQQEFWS
Chain of UniProt O75914 (whole entry, looked up): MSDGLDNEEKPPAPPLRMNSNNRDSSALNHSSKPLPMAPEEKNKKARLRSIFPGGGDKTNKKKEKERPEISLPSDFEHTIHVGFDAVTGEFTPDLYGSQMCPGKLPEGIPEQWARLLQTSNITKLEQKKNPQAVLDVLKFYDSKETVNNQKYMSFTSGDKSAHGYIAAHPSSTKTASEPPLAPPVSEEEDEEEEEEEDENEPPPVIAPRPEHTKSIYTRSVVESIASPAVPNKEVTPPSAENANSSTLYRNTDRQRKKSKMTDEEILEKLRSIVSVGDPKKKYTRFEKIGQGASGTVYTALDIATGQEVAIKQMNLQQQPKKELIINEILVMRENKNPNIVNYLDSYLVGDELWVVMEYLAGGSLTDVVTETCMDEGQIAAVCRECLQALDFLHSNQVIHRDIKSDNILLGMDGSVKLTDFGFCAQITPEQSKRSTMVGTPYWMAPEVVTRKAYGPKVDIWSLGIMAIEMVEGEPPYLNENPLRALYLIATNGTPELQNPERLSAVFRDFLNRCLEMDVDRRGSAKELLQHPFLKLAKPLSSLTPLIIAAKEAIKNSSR
Chain of UniProt P35626 (whole entry, looked up): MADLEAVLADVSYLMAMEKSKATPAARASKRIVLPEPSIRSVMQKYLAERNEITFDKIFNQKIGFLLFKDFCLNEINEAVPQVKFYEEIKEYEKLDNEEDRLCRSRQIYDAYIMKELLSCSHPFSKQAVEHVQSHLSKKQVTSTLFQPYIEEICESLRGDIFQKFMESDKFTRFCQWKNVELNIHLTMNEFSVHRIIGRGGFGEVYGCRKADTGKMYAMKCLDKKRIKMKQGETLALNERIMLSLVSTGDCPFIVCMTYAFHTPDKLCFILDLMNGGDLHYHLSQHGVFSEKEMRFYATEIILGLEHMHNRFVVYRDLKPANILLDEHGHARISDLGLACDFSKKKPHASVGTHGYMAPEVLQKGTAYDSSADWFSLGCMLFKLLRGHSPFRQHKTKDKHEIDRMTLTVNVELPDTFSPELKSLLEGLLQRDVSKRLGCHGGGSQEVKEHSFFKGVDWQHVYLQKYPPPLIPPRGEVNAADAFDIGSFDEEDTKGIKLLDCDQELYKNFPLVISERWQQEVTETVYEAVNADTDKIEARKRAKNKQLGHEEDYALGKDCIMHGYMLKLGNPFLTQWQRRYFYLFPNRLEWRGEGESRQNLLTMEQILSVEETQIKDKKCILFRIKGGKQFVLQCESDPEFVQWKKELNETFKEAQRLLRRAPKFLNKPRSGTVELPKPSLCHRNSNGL
Chain of UniProt Q9Y243 (whole entry, looked up): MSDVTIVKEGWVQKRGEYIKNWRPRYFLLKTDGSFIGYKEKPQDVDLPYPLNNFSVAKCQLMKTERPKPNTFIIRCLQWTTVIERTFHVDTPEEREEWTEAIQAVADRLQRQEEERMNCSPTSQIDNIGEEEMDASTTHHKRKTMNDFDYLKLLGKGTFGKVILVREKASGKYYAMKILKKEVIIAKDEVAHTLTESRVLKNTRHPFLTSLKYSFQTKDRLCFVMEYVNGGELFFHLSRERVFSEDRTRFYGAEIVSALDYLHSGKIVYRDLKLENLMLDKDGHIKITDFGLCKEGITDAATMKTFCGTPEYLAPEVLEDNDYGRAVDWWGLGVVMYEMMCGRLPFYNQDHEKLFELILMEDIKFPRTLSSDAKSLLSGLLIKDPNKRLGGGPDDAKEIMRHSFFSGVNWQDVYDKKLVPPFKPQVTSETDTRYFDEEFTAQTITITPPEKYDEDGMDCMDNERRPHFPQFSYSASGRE
Chain of UniProt P46734 (whole entry, looked up): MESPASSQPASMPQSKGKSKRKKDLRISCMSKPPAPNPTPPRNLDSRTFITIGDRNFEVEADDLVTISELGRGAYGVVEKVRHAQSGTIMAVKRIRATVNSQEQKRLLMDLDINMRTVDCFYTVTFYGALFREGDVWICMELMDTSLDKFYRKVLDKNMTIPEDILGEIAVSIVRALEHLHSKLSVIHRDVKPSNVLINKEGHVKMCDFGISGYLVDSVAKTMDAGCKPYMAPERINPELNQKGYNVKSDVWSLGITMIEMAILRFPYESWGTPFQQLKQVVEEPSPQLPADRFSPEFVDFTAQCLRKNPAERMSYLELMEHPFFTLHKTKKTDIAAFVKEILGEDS

Study 1
Target: Eukaryotic initiation factor 4A-I (EIF4A1, Homo sapiens, UniProt P60842, residues 1-406, full length assumed)
Chain of UniProt P60842 (whole entry, looked up): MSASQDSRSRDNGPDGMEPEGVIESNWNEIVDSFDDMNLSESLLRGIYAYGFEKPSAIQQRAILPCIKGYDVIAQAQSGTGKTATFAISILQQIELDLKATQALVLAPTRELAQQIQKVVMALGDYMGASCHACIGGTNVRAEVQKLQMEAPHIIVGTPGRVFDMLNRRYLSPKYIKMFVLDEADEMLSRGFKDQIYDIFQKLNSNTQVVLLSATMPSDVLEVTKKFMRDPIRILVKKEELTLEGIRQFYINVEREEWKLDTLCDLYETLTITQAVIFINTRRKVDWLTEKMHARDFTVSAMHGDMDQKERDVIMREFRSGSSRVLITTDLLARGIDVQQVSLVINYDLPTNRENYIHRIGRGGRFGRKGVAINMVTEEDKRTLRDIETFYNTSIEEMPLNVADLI
Method: RNA Bind-n-Seq
Form: RNA
Sample: in vitro
Tested at: 15 pmol
Notes: 4-mer, random 30-nt RNA, single round
With: 3 µM DMDA-PatA, 2 mM AMP-PNP
Baseline: input library
Reading: higher = stronger binding
Oligonucleotide	4-mer enrichment
GUCA	0.533 fold
UCAG	0.507 fold
UUGG	1.31 fold
GGCA	0.97 fold
GUAG	1.68 fold
AUAC	0.774 fold
CUGA	0.634 fold
AACG	0.711 fold

Study 2
Cell line: mouse MPNST tumor cells
Method: high-content immunofluorescence imaging
Refers to: nuclear SOX9
Tested at: 10 µM
Time: 12 h
Notes: mean of 2 replicates
Baseline: DMSO control
Reading: higher = more nuclear SOX9
Compound	nuclear SOX9 intensity
CCOc1ccccc1OCCN[C@H](C)Cc1ccc(OC)c(S(N)(=O)=O)c1	105 % of DMSO
CS(=O)(=O)c1ccc(-c2cc(Br)sc2-c2ccc(F)cc2)cc1	98.7 % of DMSO
CCn1c2ccccc2c2cc(CNC)ccc21	217 % of DMSO

Study 3
Target: Histone acetyltransferase KAT6A, winged helix 1, GST fusion (KAT6A, Homo sapiens, UniProt Q92794, residues 1-85)
Method: protein binding microarray
Form: double-stranded DNA, one strand shown
Sample: in vitro
Tested at: not given
Notes: 8-mer, flanks averaged, mean of 2 arrays, mostly near background
Baseline: not given
Reading: higher = stronger binding
Construct (chain): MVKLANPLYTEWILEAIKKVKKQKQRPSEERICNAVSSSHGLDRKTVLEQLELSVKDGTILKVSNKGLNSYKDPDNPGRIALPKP
Oligonucleotide	E-score
CCTGGACC	-0.238
ATCAGCAA	-0.171
CCTAGACC	-0.158
AATGAGAC	-0.164
CTAGGACC	-0.115
ATGCTCAC	0.0309
CTATACAG	-0.163
ACTACGTC	-0.0412

Study 4
Compound: CN1CCN(c2cnc3c(C4CCN(C(=O)c5ccc(OC(F)(F)F)cc5N)CC4)ncnc3c2)CC1
Observed: cell-free assay
Method: competition with immobilised ligand
Tested at: 1 µM
target	remaining binding [%]
IRAK4 (Homo sapiens, UniProt Q9NWZ3)	90
CAMKK1 (Homo sapiens, UniProt Q8N5S9)	100
Ribosomal protein S6 kinase alpha-1, N-terminal kinase domain (RPS6KA1, Homo sapiens, UniProt Q15418)	100
PIK3CA (Homo sapiens, UniProt P42336, C420R)	94
MAP2K3 (Homo sapiens, UniProt P46734)	94
PIM3 (Homo sapiens, UniProt Q86V86)	100
AKT3 (Homo sapiens, UniProt Q9Y243)	93
MAP3K9 (Homo sapiens, UniProt P80192)	100
GRK3 (Homo sapiens, UniProt P35626)	89
MAPK14 (Homo sapiens, UniProt Q16539)	99
MINK1 (Homo sapiens, UniProt Q8N4C8)	85
RPS6KB1 (Homo sapiens, UniProt P23443)	90
PAK3 (Homo sapiens, UniProt O75914)	88

A few entries again (study 3):
Oligonucleotide	E-score
CCTGGACC	-0.238
ATCAGCAA	-0.171
CCTAGACC	-0.158
AATGAGAC	-0.164
CTAGGACC	-0.115
